Experimental data pooled from the literature.
Numbered parts are unrelated; each lists some results of a single study. Positions count from the first letter of the parent shown.
Chain of UniProt O75417 (whole entry, unmodified, looked up): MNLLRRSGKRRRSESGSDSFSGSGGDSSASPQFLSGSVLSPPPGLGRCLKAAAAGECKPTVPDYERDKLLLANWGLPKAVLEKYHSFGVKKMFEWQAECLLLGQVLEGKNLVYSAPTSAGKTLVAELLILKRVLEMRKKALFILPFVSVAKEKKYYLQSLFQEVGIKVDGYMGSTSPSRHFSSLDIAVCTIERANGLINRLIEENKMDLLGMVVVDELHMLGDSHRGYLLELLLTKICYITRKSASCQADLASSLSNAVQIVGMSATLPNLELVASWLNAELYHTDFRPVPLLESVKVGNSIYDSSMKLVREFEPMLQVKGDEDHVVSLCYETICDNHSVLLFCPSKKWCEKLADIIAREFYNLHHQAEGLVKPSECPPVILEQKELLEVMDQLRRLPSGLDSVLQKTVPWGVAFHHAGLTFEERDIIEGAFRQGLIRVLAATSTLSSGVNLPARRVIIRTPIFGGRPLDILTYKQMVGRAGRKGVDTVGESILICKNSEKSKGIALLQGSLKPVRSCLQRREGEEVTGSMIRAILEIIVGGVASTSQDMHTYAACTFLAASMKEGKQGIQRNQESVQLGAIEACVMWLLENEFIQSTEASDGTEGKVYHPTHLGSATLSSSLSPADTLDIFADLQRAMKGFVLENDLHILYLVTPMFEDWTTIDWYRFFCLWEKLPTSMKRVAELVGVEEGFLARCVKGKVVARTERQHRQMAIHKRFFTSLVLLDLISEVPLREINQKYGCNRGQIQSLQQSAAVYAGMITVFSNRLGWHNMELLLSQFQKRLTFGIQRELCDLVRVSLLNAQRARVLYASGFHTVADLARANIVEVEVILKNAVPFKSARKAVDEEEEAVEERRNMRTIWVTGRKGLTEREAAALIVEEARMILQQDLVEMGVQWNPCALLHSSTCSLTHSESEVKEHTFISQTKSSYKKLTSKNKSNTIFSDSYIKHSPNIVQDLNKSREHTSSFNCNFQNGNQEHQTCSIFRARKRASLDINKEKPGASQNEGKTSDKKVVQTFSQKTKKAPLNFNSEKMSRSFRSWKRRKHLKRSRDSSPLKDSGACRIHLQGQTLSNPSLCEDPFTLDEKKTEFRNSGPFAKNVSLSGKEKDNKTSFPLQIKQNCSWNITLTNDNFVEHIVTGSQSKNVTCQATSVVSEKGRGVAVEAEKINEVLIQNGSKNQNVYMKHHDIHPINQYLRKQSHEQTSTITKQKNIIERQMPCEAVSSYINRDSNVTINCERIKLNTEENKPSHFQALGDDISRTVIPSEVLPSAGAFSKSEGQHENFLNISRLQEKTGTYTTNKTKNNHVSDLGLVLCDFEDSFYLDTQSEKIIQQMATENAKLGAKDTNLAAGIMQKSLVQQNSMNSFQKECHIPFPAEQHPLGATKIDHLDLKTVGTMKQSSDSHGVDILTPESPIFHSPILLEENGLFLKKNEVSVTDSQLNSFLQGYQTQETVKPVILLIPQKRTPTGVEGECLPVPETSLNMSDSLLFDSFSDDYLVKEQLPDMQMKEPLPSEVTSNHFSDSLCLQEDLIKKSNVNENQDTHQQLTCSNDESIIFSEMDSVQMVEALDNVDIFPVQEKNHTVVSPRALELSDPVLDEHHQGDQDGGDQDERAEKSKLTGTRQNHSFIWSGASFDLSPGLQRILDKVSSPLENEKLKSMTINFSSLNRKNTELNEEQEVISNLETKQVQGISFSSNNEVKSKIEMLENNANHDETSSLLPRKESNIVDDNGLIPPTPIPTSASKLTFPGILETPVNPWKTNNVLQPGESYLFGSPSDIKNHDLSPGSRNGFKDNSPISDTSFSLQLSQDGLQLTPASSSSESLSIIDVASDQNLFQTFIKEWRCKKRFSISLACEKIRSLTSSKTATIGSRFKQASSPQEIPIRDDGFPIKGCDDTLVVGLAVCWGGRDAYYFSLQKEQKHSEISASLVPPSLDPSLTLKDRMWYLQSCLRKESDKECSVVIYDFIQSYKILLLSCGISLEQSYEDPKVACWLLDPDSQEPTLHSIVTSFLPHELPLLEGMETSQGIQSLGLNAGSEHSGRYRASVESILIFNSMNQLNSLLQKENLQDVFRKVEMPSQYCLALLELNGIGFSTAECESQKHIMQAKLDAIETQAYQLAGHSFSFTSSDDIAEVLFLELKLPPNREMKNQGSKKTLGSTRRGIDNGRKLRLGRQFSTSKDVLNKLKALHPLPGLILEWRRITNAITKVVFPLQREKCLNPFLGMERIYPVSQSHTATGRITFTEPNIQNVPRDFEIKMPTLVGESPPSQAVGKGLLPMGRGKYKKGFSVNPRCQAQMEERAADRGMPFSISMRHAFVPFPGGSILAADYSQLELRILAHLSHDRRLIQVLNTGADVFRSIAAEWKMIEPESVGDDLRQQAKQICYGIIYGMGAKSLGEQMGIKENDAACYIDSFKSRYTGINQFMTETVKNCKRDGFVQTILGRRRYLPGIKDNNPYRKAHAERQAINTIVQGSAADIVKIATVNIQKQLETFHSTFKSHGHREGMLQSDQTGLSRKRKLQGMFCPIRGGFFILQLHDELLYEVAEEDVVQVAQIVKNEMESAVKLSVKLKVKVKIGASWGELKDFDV
Chain of UniProt P41143 (whole entry, looked up): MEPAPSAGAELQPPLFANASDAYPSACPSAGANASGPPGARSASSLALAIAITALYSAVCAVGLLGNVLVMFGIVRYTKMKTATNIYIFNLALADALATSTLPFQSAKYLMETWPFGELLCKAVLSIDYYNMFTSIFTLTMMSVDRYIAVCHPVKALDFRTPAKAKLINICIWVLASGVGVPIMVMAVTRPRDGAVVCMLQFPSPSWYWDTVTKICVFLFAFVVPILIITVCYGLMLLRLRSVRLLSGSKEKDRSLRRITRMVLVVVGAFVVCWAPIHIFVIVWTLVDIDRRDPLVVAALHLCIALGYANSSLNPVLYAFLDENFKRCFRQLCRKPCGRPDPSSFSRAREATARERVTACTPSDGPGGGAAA

Sample 1 — target: CCNB3, cyclin fold, Cln2 fusion (human); technique: yeast growth competition, sequencing; matrix: yeast; setting: strong parent motif; relative to: not given; reading: higher = stronger binding; parent: viral docking peptide; CKVKRKLFGSENI
Under “normalised enrichment score”, `K2A` is recorded as 1.02.
Under “normalised enrichment score”, `R5K` is recorded as 0.0895.
Under “normalised enrichment score”, `F8A` is recorded as -0.137.
Under “normalised enrichment score”, `I13A` is recorded as 1.26.
For `G9A`, “normalised enrichment score” read 1.42.
`V3A`: “normalised enrichment score” 0.678.
Under “normalised enrichment score”, `E11A` is recorded as 0.817.
For `R5K F8L`, “normalised enrichment score” read 0.0465.

Sample 2 — target: tungstate, free oxyanion; technique: microfluidic competitive inhibition; matrix: in vitro, cell-free expressed; tested at: not given; reading: lower = stronger binding
Setting: derived from inhibition constants, unchanged parent 2230 nM
Parent: PafA, mature enzyme, eGFP fusion (Elizabethkingia meningoseptica, UniProt Q9KJX5); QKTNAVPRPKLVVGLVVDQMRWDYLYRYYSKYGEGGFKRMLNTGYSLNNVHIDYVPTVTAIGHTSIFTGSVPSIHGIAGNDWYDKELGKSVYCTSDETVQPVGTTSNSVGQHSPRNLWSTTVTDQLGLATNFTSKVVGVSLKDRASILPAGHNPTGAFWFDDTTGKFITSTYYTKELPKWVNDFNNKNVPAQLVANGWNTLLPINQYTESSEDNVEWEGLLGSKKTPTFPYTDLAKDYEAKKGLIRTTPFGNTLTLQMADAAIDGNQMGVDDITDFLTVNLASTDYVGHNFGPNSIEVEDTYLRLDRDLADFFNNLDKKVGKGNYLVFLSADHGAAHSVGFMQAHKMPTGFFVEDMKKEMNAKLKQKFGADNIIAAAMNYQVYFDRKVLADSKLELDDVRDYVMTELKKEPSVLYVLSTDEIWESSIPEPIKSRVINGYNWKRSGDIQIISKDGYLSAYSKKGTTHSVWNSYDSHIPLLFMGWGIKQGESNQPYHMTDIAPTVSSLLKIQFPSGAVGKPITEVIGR
For `P190V`, “oxyanion analog dissociation constant” read 2.03 µM.
`L193V` — result for “oxyanion analog dissociation constant”: 1.8 µM.
Under “oxyanion analog dissociation constant”, `E424G` is recorded as 2.38 µM.
Under “oxyanion analog dissociation constant”, `N440V` is recorded as 2.62 µM.
`I204G`: “oxyanion analog dissociation constant” 2.17 µM.
`F313V`: “oxyanion analog dissociation constant” 1.93 µM.
Under “oxyanion analog dissociation constant”, `L329V` is recorded as 2.39 µM.
Under “oxyanion analog dissociation constant”, `I204V` is recorded as 2.31 µM.

Further values, each from its own experiment
`NCC(CC(=O)O)c1ccc(Cl)cc1` (stereo not shown) gave a remaining activity of 104% (DNA polymerase theta, ATPase domain (POLQ, Homo sapiens, UniProt O75417); enzyme activity, inhibitor; 77 µM; relative to: untreated).
With `O=C(O)c1ccc(N2C(=O)/C(=C\c3ccc(-c4ccc([N+](=O)[O-])cc4)o3)C=C2c2ccccc2)cc1` the CC50 was 12.8 µM (Vero E6; cytotoxicity, imaging).
`CCN(CC)C(=O)c1ccc(C2=CC3(CCNCC3)Oc3cccc(O)c32)cc1` gave an EC50 of 0.681 µM (Delta-type opioid receptor, with β-arrestin1 (OPRD1, Homo sapiens, UniProt P41143); human cells).

Repeated from above (sample 1):
`V3A`: “normalised enrichment score” 0.678.
Under “normalised enrichment score”, `E11A` is recorded as 0.817.
For `R5K F8L`, “normalised enrichment score” read 0.0465.
